Published values pooled from the literature.
Numbered parts are unrelated; each lists some results of a single study.
UniProt P10721, sequence (whole entry, unmodified, looked up): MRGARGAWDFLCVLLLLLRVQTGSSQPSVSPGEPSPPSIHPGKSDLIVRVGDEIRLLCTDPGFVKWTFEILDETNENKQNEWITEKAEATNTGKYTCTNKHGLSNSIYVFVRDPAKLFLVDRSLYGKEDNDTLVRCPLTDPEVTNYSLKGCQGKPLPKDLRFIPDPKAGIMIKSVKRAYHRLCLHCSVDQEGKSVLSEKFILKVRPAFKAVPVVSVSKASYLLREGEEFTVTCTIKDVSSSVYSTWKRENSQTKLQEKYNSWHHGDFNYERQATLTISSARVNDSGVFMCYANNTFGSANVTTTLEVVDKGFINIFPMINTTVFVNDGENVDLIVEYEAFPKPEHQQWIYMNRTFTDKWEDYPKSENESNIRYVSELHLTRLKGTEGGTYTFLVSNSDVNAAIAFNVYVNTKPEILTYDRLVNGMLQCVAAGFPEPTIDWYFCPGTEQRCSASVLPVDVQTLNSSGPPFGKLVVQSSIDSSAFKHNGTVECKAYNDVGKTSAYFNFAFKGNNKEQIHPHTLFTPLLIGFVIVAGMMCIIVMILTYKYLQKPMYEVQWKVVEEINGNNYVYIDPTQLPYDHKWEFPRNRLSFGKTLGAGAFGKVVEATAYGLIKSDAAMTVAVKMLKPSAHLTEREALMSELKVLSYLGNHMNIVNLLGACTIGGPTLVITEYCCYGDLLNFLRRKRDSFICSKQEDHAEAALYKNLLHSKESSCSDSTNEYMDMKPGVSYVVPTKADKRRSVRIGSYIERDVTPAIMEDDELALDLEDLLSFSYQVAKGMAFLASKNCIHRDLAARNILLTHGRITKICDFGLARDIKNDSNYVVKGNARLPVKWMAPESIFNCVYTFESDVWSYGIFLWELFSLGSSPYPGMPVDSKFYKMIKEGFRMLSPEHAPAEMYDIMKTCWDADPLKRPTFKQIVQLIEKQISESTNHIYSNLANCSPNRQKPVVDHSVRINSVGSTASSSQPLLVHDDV
UniProt O00750, sequence (whole entry, looked up): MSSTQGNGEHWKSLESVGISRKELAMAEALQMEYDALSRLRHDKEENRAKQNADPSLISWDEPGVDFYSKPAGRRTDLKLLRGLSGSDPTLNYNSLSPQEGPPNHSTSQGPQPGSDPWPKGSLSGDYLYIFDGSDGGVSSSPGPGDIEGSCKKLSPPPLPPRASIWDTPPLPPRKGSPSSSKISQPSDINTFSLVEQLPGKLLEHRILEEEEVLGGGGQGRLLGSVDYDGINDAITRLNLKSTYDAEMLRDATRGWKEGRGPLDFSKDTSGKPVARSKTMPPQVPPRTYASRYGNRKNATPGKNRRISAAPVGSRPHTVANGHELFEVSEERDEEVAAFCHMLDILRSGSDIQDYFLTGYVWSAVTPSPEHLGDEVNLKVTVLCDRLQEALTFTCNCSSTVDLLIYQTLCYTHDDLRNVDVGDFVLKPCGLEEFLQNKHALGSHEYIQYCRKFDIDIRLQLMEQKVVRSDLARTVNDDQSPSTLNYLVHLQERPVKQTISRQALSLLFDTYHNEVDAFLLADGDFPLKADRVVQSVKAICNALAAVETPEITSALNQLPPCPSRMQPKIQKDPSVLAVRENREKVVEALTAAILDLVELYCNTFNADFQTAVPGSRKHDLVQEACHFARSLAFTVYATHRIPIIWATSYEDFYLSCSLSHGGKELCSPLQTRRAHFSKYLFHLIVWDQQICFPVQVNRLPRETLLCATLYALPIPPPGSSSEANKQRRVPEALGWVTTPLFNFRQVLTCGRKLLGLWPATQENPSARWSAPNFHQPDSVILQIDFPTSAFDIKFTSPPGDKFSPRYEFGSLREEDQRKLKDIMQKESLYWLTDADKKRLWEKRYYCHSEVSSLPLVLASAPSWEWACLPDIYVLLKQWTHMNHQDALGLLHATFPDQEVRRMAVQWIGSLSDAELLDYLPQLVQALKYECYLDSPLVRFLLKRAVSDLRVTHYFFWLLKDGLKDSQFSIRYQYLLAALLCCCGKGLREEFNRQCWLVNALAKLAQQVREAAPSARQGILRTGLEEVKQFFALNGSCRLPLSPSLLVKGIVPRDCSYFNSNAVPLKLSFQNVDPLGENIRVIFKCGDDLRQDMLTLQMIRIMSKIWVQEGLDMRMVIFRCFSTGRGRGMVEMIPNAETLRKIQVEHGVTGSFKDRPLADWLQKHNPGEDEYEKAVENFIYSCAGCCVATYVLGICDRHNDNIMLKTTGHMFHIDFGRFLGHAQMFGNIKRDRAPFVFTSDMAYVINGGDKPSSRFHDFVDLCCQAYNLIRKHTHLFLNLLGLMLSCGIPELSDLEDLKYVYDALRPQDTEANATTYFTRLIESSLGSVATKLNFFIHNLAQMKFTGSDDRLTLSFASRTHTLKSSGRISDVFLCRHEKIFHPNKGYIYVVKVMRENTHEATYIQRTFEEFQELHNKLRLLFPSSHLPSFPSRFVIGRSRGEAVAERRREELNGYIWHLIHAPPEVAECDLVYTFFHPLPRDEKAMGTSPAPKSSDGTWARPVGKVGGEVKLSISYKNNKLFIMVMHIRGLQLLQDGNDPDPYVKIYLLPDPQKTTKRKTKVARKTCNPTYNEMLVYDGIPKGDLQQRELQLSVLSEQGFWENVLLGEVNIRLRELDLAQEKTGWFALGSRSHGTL
UniProt Q15349, sequence (whole entry, looked up): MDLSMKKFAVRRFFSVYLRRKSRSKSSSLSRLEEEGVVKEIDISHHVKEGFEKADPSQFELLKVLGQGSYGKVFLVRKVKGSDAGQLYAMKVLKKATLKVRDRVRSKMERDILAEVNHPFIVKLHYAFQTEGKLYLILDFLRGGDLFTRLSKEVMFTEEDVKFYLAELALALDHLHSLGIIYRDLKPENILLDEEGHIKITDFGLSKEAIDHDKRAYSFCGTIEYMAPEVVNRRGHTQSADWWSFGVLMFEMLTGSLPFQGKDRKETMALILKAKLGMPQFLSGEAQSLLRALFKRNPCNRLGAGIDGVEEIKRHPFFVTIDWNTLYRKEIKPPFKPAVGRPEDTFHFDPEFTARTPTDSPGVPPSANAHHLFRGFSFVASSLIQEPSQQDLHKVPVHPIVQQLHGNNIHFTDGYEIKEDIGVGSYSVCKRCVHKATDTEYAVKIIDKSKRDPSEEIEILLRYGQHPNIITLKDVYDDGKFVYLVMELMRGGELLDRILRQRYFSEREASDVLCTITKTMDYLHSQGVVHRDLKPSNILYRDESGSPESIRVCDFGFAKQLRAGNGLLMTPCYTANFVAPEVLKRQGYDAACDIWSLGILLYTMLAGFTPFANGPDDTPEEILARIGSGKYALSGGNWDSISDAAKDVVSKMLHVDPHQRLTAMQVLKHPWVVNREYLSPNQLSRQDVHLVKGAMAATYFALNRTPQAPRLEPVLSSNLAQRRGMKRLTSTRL
UniProt Q08345, sequence (whole entry, looked up): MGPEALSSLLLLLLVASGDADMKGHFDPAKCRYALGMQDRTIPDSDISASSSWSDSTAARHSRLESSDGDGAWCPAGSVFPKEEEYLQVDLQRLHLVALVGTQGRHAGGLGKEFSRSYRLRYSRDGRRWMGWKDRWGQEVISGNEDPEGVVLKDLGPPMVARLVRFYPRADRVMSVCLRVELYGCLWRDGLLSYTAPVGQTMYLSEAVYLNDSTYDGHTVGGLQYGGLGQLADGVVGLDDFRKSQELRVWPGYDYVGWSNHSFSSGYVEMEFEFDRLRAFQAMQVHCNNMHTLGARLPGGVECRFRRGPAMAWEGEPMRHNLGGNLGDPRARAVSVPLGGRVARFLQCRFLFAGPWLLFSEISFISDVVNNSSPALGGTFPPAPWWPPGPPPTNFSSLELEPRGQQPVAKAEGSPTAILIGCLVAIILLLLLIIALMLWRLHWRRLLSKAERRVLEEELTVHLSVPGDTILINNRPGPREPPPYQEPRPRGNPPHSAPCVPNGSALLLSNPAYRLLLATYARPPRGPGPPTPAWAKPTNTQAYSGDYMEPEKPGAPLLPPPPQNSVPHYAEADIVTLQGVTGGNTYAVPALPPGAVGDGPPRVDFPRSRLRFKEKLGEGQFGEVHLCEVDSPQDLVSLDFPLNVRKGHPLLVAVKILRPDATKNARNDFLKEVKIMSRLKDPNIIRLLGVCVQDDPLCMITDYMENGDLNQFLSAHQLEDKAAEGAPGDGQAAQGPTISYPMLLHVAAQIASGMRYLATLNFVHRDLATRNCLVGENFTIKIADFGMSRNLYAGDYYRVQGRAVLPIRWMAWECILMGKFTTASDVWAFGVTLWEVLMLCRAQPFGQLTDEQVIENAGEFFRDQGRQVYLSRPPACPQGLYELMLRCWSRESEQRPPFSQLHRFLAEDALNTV
UniProt Q9UPZ9, sequence (whole entry, looked up): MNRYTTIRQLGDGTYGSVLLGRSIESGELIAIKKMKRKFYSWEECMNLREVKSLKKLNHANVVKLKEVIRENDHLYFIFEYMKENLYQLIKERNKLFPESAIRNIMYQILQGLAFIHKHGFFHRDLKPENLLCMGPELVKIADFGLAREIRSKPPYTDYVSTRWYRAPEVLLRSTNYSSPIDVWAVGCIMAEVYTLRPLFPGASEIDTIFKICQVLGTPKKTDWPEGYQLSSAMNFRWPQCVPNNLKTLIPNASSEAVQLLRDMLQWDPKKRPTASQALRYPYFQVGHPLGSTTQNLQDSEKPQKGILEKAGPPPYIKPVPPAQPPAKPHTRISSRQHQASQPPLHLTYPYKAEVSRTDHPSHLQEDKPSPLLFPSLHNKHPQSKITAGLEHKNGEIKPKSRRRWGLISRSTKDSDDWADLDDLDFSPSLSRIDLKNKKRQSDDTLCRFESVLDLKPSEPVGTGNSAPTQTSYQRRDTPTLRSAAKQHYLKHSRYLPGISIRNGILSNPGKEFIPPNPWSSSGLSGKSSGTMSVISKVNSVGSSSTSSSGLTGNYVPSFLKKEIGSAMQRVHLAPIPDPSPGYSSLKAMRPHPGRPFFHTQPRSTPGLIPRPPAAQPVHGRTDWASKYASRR

Set 1
Target: Serine/threonine-protein kinase NLK (NLK, Homo sapiens, UniProt Q9UBE8)
Effect on: enzyme activity
Action: inhibitor
Concentration: 0.5 µM
Baseline: control
Quantity: remaining activity
Construct (Q9UBE8 1-527): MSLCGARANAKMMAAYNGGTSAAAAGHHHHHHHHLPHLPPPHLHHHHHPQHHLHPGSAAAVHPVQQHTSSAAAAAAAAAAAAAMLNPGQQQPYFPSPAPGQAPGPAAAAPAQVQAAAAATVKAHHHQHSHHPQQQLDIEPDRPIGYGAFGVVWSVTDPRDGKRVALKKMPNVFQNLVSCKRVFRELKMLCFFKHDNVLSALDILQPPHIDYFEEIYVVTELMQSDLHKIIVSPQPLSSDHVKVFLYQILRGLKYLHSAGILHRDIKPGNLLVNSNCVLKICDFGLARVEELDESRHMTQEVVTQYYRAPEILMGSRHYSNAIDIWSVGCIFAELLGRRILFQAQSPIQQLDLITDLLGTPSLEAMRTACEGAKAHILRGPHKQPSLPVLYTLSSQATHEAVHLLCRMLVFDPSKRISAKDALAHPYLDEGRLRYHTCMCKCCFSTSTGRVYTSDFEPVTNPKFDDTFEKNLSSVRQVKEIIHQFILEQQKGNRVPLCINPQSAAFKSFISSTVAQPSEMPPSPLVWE
CC(C)(C)n1nc(Cc2cccc3ccccc23)c2c(N)ncnc21: 65.7%
Nc1ncnc2c1cnn2-c1ccccc1: 92.5%
Cc1cncc2cccc(S(=O)(=O)N3CCCN(C(=O)CN)C[C@@H]3C)c12: 99.6%
NC(=O)c1ccc(N(C(N)=O)c2c(F)cccc2F)nc1-c1ccc(F)cc1F: 15.8%
COc1cc(Nc2c(C#N)cnc3cc(OCCCN4CCN(C)CC4)c(OC)cc23)c(Cl)cc1Cl: 101%
Fc1ccc(-c2nc3n(c2-c2ccncc2)CCS3)cc1: 41.1%
Cc1cc(Nc2nc(-c3ccccc3)nc3ccccc23)n[nH]1: 94.7%

Set 2
Structure (SMILES): COc1cc(C(=O)N2CCC(N3CCN(C)CC3)CC2)ccc1Nc1ncc2c(n1)N(C)c1ccccc1C(=O)N2C
Technique: KINOMEscan
Concentration: 10 µM
Direction: lower = stronger binding
Quantity: binding (% of control)
CTK: 100%
ABL1(Q252H)-phosphorylated: 100%
IKK-beta: 89%
VEGFR2: 84%
ABL1(Q252H)-nonphosphorylated: 100%
SIK: 77%
ABL1(T315I)-nonphosphorylated: 100%
ABL1(F317I)-nonphosphorylated: 15%
AMPK-alpha2: 66%

Set 3
SMILES: O=C(Nc1ccc(Oc2ccc(F)cc2)cc1)N1CCc2ncccc2[C@H]1c1ccc(F)cc1
Technique: competition with immobilised ligand
Concentration: 1 µM
Quantity: remaining binding
Dual specificity tyrosine-phosphorylation-regulated kinase 1A (DYRK1A, Homo sapiens, UniProt Q13627); cell-free assay: 95%
RAC-alpha serine/threonine-protein kinase (AKT1, Homo sapiens, UniProt P31749); cell-free assay: 95%
Mast/stem cell growth factor receptor Kit (KIT, Homo sapiens, UniProt P10721, L576P); cell-free assay: 100%
SNF-related serine/threonine-protein kinase (SNRK, Homo sapiens, UniProt Q9NRH2); cell-free assay: 90%
Serine/threonine-protein kinase PLK2 (PLK2, Homo sapiens, UniProt Q9NYY3); cell-free assay: 100%
Phosphatidylinositol 4-phosphate 3-kinase C2 domain-containing subunit beta (PIK3C2B, Homo sapiens, UniProt O00750); cell-free assay: 96%
Mast/stem cell growth factor receptor Kit (KIT, Homo sapiens, UniProt P10721, A829P); cell-free assay: 100%
Serine/threonine-protein kinase ICK (CILK1, Homo sapiens, UniProt Q9UPZ9); binding: 76%
Dual specificity protein kinase CLK1 (CLK1, Homo sapiens, UniProt P49759); cell-free assay: 86%
Ribosomal protein S6 kinase alpha-2, C-terminal kinase domain (RPS6KA2, Homo sapiens, UniProt Q15349); cell-free assay: 94%
1-phosphatidylinositol 3-phosphate 5-kinase (PIKFYVE, Homo sapiens, UniProt Q9Y2I7); cell-free assay: 95%
Tyrosine-protein kinase Yes (YES1, Homo sapiens, UniProt P07947); cell-free assay: 100%
Epithelial discoidin domain-containing receptor 1 (DDR1, Homo sapiens, UniProt Q08345); cell-free assay: 100%
Tyrosine-protein kinase ABL1, phosphorylated (ABL1, Homo sapiens, UniProt P00519, M351T); cell-free assay: 51%
Serine/threonine-protein kinase TAO1 (TAOK1, Homo sapiens, UniProt Q7L7X3); cell-free assay: 100%

Set 4
SMILES: CC(=O)N[C@@H](Cc1c[nH]c2ccccc12)C(=O)N[C@@H](CCC(=O)C=[N+]=[N-])C(=O)OC(C)C
Host: mouse, EL4 tumour-bearing
Medium: EL4 tumour
Dose: dose not given
Baseline: vehicle
Quantity: log2 fold change
refers to: arginine: 0.00778
refers to: N-acetylglucosamine 6-phosphate: 0.367
refers to: 1-methyl-5-imidazoleacetate: -0.39
refers to: N-acetylglutamine: 0.0529
refers to: 3-indoxyl sulfate: 0.365
refers to: gluconate: 0.9
refers to: formiminoglutamate: 0.132
refers to: guanosine: -0.536
refers to: allantoin: -0.0989
